Measurements of several laboratories.
Lines come from different studies, so protocols differ. ± gives the spread as reported.
Chain of UniProt P43220 (whole entry, looked up): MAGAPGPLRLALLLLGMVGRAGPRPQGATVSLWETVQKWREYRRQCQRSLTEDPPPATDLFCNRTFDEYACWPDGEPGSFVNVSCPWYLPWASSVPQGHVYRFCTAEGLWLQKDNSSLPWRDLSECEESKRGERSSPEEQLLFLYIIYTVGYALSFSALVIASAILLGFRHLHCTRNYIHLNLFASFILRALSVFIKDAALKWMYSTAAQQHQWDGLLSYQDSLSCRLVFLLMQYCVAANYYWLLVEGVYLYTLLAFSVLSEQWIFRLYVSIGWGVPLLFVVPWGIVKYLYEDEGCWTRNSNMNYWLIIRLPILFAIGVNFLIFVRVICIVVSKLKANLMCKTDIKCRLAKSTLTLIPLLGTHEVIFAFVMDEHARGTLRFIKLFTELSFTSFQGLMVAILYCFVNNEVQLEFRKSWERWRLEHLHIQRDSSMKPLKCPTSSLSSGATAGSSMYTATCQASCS
Chain of UniProt P17931 (whole entry, unmodified, looked up): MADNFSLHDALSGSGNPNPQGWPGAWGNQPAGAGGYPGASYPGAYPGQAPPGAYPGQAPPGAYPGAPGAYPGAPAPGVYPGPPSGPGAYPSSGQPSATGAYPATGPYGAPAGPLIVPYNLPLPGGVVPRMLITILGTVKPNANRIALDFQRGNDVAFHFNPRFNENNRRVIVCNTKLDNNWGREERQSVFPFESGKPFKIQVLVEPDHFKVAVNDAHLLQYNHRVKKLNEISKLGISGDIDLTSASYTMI
Chain of UniProt P12004 (whole entry, looked up): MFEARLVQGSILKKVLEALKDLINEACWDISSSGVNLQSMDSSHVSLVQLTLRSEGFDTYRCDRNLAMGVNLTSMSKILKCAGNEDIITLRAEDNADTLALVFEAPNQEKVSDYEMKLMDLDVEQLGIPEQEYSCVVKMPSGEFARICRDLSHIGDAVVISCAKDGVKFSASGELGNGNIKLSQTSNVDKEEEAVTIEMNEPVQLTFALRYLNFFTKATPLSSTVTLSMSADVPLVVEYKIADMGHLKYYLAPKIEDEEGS
Chain of UniProt Q03405 (whole entry, looked up): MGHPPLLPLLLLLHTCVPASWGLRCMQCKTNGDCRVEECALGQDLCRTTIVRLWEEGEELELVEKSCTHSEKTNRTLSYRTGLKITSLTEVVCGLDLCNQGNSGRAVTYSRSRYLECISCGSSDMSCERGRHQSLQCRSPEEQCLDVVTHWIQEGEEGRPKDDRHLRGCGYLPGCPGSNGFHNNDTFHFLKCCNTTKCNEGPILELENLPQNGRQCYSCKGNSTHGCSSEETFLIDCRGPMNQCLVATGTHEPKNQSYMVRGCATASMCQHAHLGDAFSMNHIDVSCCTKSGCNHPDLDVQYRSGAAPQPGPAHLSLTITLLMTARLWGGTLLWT
Chain of UniProt P22309 (whole entry, looked up): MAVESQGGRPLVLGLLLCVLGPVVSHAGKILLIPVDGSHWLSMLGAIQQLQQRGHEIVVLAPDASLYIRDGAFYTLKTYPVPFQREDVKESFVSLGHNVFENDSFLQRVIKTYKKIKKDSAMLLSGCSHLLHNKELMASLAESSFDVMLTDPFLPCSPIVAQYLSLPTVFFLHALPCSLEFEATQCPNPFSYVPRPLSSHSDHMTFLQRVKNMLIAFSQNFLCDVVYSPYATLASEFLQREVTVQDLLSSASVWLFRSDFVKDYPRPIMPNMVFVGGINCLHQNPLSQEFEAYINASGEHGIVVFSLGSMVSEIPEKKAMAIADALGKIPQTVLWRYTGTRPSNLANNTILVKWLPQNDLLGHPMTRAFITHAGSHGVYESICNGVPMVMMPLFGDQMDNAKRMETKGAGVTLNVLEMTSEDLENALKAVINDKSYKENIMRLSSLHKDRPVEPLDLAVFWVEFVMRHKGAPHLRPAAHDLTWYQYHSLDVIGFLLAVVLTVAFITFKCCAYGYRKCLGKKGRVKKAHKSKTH
Chain of UniProt Q8BH82 (whole entry, looked up): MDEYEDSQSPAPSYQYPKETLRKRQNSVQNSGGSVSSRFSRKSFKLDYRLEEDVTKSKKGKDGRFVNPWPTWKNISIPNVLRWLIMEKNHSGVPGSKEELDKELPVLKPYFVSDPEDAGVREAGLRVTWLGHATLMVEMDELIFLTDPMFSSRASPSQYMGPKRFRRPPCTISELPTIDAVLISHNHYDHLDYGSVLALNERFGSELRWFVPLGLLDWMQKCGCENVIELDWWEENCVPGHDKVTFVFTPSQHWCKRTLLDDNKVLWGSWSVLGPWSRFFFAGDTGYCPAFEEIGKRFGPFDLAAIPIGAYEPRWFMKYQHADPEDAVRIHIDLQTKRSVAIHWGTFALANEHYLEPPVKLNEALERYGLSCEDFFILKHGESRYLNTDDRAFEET
Chain of UniProt P02754 (whole entry, unmodified, looked up): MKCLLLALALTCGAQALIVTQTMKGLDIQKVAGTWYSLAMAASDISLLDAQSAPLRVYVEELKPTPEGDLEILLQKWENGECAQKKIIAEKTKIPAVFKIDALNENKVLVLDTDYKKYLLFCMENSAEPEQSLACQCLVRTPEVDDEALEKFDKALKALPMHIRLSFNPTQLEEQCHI
Chain of UniProt P16257 (whole entry, looked up): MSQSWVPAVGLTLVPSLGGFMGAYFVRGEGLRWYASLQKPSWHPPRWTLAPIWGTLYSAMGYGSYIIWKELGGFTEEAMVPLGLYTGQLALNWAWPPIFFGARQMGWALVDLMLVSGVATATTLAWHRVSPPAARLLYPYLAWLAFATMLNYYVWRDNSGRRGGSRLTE
Chain of UniProt Q7L0J3 (whole entry, looked up): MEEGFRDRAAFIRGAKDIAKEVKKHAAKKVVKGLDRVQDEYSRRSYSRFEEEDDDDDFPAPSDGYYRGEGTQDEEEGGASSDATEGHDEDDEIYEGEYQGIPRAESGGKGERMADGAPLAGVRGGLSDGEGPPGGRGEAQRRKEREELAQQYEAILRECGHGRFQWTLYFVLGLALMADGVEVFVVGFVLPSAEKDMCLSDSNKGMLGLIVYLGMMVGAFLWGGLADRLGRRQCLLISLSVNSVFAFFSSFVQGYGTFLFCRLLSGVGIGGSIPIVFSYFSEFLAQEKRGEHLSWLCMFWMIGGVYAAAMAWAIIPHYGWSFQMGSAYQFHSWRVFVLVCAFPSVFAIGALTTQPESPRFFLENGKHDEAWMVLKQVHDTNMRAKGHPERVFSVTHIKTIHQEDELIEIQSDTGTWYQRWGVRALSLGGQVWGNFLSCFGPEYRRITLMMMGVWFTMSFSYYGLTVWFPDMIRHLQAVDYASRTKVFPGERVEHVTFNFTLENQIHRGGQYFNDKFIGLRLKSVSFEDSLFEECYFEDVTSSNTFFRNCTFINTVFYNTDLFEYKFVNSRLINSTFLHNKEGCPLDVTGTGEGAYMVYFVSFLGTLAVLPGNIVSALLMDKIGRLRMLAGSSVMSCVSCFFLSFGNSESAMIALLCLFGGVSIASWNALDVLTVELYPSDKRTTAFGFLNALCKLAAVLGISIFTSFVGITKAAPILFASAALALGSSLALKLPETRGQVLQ
Chain of UniProt P10275 (whole entry, looked up): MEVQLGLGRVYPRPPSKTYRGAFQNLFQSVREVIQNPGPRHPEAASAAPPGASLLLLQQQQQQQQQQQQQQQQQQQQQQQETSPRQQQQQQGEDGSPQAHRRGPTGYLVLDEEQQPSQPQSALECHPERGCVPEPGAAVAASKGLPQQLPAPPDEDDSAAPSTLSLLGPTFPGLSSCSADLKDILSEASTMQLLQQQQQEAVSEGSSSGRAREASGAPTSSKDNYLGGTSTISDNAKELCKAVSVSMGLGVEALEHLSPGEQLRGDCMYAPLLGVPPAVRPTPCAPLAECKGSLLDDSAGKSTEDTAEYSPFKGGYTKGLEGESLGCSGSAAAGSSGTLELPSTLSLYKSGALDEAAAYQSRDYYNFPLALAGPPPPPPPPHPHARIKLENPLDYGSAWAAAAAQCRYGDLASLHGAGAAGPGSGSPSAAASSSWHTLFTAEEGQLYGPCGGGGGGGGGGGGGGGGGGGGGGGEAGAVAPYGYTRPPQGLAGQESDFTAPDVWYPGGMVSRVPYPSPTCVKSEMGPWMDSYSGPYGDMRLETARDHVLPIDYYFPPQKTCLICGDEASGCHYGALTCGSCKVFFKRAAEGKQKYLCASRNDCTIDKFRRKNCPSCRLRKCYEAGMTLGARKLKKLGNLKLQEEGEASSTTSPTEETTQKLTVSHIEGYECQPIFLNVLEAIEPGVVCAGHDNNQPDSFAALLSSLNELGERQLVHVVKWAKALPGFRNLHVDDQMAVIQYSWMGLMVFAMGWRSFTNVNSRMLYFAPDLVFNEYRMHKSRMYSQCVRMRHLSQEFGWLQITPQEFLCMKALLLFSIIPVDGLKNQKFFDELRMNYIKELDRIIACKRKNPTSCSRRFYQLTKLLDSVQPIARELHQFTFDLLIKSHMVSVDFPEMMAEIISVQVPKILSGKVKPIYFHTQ

Structure (SMILES) | target | assay | system | setting | endpoint | result
[3H]C([3H])([3H])c1cnccc1CN1C[C@@H](c2cc(F)c(F)c(F)c2)CC1=O | Synaptic vesicle glycoprotein 2A (SV2A, Homo sapiens, UniProt Q7L0J3) | radioligand binding, autoradiography | human, post-mortem temporal lobe | 5 nM | specific binding | 376 fmol/mg
CC(Oc1nc(-c2ccccc2)nc2ccccc12)C(=O)N(C)c1ccccc1 (stereo not drawn) | Translocator protein (Tspo, Rattus norvegicus, UniProt P16257) | binding | rat brain homogenate | pKi minus clogD | lipophilic efficiency | 4.4 ± 0.5
O=C(O)C1OC(OC2C(C(=O)O)OC(OC3C(C(=O)O)OC(OC4C(C(=O)O)OC(O)C(O)C4O)C(O)C3O)C(O)C2O)C(O)C(O)C1O (stereo not drawn) | Beta-lactoglobulin (LGB, Bos taurus, UniProt P02754, A134V/G80D) | isothermal titration calorimetry |  | pH 2.65 | ΔH | -1.2 kcal/mol
COc1cccc(C(=O)N[C@H]2[C@@H](O)[C@@H](CO)O[C@@H](S[C@@H]3O[C@H](CO)[C@H](O)[C@H](NC(=O)c4cccc(OC)c4)[C@H]3OS(=O)(=O)O)[C@@H]2O)c1 | Galectin-3 (LGALS3, Homo sapiens, UniProt P17931) | ITC |  | Kd fixed from FP | ΔG | -9.871 ± 0.0717 kcal/mol
COc1ccc(-c2cc(C(F)(F)F)nc(SCCC(=O)Nc3cc(F)ccc3F)n2)cc1 | Glucagon-like peptide 1 receptor (GLP1R, Homo sapiens, UniProt P43220) | cAMP accumulation, positive allosteric modulator | HEK-293T overexpressing GLP1R | added: EC20 GLP-1 | Emax | 30 ± 13%
O=C(O)[C@H]1O[C@@H](O[C@H]2C=Cc3c(cc4ccc5cccc6c7ccccc7c3c4c56)[C@@H]2O)[C@H](O)[C@@H](O)[C@@H]1O | UDP-glucuronosyltransferase 1A1 (UGT1A1, Homo sapiens, UniProt P22309) | glucuronidation, substrate | UGT-expressing HEK293 homogenate | normalized to UGT expression | kcat | 0.00383 ± 0.000667 s⁻¹
O=C(Nc1ccc(C(F)(F)F)cc1)c1cc(Cl)ccc1O | Androgen receptor, AR-V7 isoform (AR, Homo sapiens, UniProt P10275) | Western blot | CWR22Rv1 | 1 µM, 16 h | AR variant protein level | inhibited
Oc1c(C(Nc2nc3ccccc3s2)c2cccc(OCc3ccccc3)c2)ccc2cccnc12 (stereo not drawn) | Genome polyprotein, NS2B-NS3 protease (GP1, West Nile virus, UniProt Q9Q6P4) | enzyme activity, inhibitor |  | 0.1% CHAPS, added: tetrapeptide substrate | Hill slope | 1.19 ± 0.07
CCc1nc2cc3ccccc3cc2cc1C(=O)N1CCC[C@H]1C(=O)N[C@@H](C/C=C\C[C@H](NC(=O)[C@@H]1CCCN1C(=O)c1cc2cc3ccccc3cc2nc1CC)C(=O)N[C@@H](CCCCN)C(=O)NCCCN)C(=O)N[C@@H](CCCCN)C(=O)NCCCN | (CUG)10 RNA | SPR |  |  | residence time | 548 s
CC(C)C[C@H](NC(=O)[C@H](Cc1ccc(O)cc1)NC(=O)[C@@H](CCCNC(=N)N)NC(=O)[C@@H](CO)NC(=O)[C@H](Cc1ccccc1)NC(=O)[C@H](CC1CCCCC1)NC(=O)[C@H](CC(=O)O)NC(=O)CN1CCCN2CCN(CCCN(CC(=O)O)CC2)CC1)C(=O)N[C@@H](Cc1c[nH]c2ccccc12)C(=O)N[C@@H](CO)C(=O)O (single isomer, unassigned) | Urokinase plasminogen activator surface receptor (Homo sapiens, UniProt Q03405) | binding, SPR |  |  | koff | 0.0046 s⁻¹
CSCC[C@H](NC(=O)[C@H](CO)NC(=O)[C@@H](NC(=O)[C@H](CCC(N)=O)NC(=O)[C@@H](CCCNC(=N)N)NC(=O)[C@@H](CCCNC(=N)N)NC(=O)[C@@H](CCCCN)NC(=O)[C@@H](CCCNC(=N)N)NC(C)=O)[C@@H](C)O)C(=O)N[C@H](C(=O)N[C@@H](CC(=O)O)C(=O)N[C@@H](Cc1ccccc1)C(=O)N[C@@H](Cc1ccc(O)cc1)C(=O)N[C@@H](Cc1c[nH]cn1)C(=O)N[C@@H](CO)C(=O)N[C@H](CCCCN)C(=O)N[C@H](CCCNC(=N)N)C(=O)N[C@H](CCCNC(=N)N)C(N)=O)[C@@H](C)O | Proliferating cell nuclear antigen (PCNA, Homo sapiens, UniProt P12004) | isothermal titration calorimetry |  | concentration not given, pH 7.4, 25 °C, 100 mM NaCl, added: p21 peptide | binding stoichiometry | 0.74 ± 0.07
Cc1cc(C)c2sc(NC(=O)C3CCN(S(=O)(=O)c4ccc(F)cc4)CC3)nc2c1 | N-acyl-phosphatidylethanolamine-hydrolyzing phospholipase D (Napepld, Mus musculus, UniProt Q8BH82) |  |  | 10 µM, added: flame-NAPE substrate | Vmax | 421 RFU/min

Some of these lines once more:
Structure (SMILES) | target | assay | system | setting | endpoint | result
CSCC[C@H](NC(=O)[C@H](CO)NC(=O)[C@@H](NC(=O)[C@H](CCC(N)=O)NC(=O)[C@@H](CCCNC(=N)N)NC(=O)[C@@H](CCCNC(=N)N)NC(=O)[C@@H](CCCCN)NC(=O)[C@@H](CCCNC(=N)N)NC(C)=O)[C@@H](C)O)C(=O)N[C@H](C(=O)N[C@@H](CC(=O)O)C(=O)N[C@@H](Cc1ccccc1)C(=O)N[C@@H](Cc1ccc(O)cc1)C(=O)N[C@@H](Cc1c[nH]cn1)C(=O)N[C@@H](CO)C(=O)N[C@H](CCCCN)C(=O)N[C@H](CCCNC(=N)N)C(=O)N[C@H](CCCNC(=N)N)C(N)=O)[C@@H](C)O | Proliferating cell nuclear antigen (PCNA, Homo sapiens, UniProt P12004) | isothermal titration calorimetry |  | concentration not given, pH 7.4, 25 °C, 100 mM NaCl, added: p21 peptide | binding stoichiometry | 0.74 ± 0.07
